# Results gathered from unrelated publications.
# Each line is one published result; not all experiments were run side by side. Numbers after ± are the reported error.
SMILES,test,test system,conditions,AUC(0-inf) [ng·h/mL]
Cn1nnc2c(C(N)=O)ncn2c1=O,,"male athymic rat, intracranial U87 glioma, tumour extracellular fluid","oral, 50 mg/kg, recovery-corrected microdialysis, added: after cediranib",4000
COc1ccc(/C=C\c2cc(OC)c(OC)c(OC)c2)cc1OP(=O)(O)O,,"Sprague-Dawley rat, plasma","intravenous, 28 mg/kg",15200 ± 1050
C=CC(N)CCC(=O)O (stereo not shown),,"male Sprague-Dawley rat, plasma","oral, 1.0 mg/kg, formulation 2, added: infant formula 1500 mg/kg",1750 ± 59
O=C(O)/C=C/c1ccc(O)c(O)c1,UPLC-MS/MS,"Wistar rat, microcirculation dysfunction model, plasma","oral, 100 mg/kg Salvia miltiorrhiza stem-leaf extract FT",83.6 ± 78.7
CC(C)=CCC[C@](C)(O[C@@H]1O[C@H](CO)[C@@H](O)[C@H](O)[C@H]1O)[C@H]1CC[C@]2(C)[C@@H]1[C@H](O)C[C@@H]1[C@@]3(C)CC[C@H](O)C(C)(C)[C@@H]3[C@@H](O[C@@H]3O[C@H](CO)[C@@H](O)[C@H](O)[C@H]3O)C[C@]12C,,"Sprague Dawley rat, male, plasma","oral, 25 mg/kg, in red ginseng extract",4200 ± 1300
O=C(/C=C/c1ccc(O)c2c1[C@H](C(=O)O)[C@@H](c1ccc(O)c(O)c1)O2)O[C@H](Cc1ccc(O)c(O)c1)C(=O)O,UPLC-MS/MS,"Wistar rat, microcirculation dysfunction model, plasma","oral, 100 mg/kg Salvia miltiorrhiza stem-leaf extract FT",188 ± 135
CC(C)=CCC[C@](C)(O[C@@H]1O[C@H](CO)[C@@H](O)[C@H](O)[C@H]1O)[C@H]1CC[C@]2(C)[C@@H]1[C@H](O)C[C@@H]1[C@@]3(C)CC[C@H](O[C@@H]4O[C@H](CO)[C@@H](O)[C@H](O)[C@H]4O[C@@H]4O[C@H](CO)[C@@H](O)[C@H](O)[C@H]4O)C(C)(C)[C@@H]3CC[C@]12C,,"Sprague Dawley rat, male, plasma","oral, 42 mg/kg, in frozen ginseng extract",26300 ± 7700
O=C(O)C[C@H](O)C[C@H](O)/C=C/c1c(C2CC2)nc2ccccc2c1-c1ccc(F)cc1,,"male Sprague-Dawley rat (wild type), plasma","oral, 5 mg/kg",2040 ± 368
CC(C)=CCC[C@](C)(O[C@@H]1O[C@H](CO)[C@@H](O)[C@H](O)[C@H]1O)[C@H]1CC[C@]2(C)[C@@H]1[C@H](O)C[C@@H]1[C@@]3(C)CC[C@H](O)C(C)(C)[C@@H]3[C@@H](O[C@@H]3O[C@H](CO)[C@@H](O)[C@H](O)[C@H]3O[C@@H]3O[C@@H](C)[C@H](O)[C@@H](O)[C@H]3O)C[C@]12C,,"Sprague Dawley rat, male, plasma","oral, 45 mg/kg, in red ginseng extract",7400 ± 1300
CCCC[C@H](NC(C)=O)C(=O)N[C@H]1CCC(=O)NC[C@@H](C(=O)N[C@@H](Cc2c[nH]c3ccccc23)C(N)=O)NC(=O)[C@H](CCCNC(=N)N)NC(=O)[C@@H](Cc2ccccc2)NC(=O)[C@H](Cc2c[nH]cn2)NC1=O,,"CD Sprague Dawley rat, male, plasma","subcutaneous, 1.0 mg/kg daily, day 1",1080

# A few entries again:
SMILES,test,test system,conditions,AUC(0-inf) [ng·h/mL]
O=C(O)/C=C/c1ccc(O)c(O)c1,UPLC-MS/MS,"Wistar rat, microcirculation dysfunction model, plasma","oral, 100 mg/kg Salvia miltiorrhiza stem-leaf extract FT",83.6 ± 78.7
